Results from different studies.
Each line is one published result; not all experiments were run side by side. ± gives the spread as reported.

| SMILES | test | test system | conditions | how to read | endpoint | value |
| --- | --- | --- | --- | --- | --- | --- |
| CC[C@H](C)[C@H](NC(=O)[C@H](Cc1ccccc1)NC(=O)[C@H](CC(=O)O)NC(=O)[C@@H]1CCCCNC(=O)NCC[C@H](NC(=O)[C@H](CC(C)C)NC(=O)[C@H](CCCNC(=N)N)NC(=O)[C@H](CCSC)NC(=O)[C@H](C)N)C(=O)N[C@@H](CCCCN)C(=O)N[C@@H](Cc2ccccc2)C(=O)N[C@@H](Cc2ccccc2)C(=O)N1)C(=O)N[C@@H](CC(C)C)C(=O)N[C@@H](CCC(N)=O)C(=O)N[C@@H](CCCNC(=N)N)C(=O)N[C@@H](CCCCN)C(=O)N[C@@H](CCCCN)C(=O)O | circular dichroism | 20% TFE in PBS | 200 µM, pH 7.4, 25 °C | – | helicity | 28.3% |
| CC[C@H](C)[C@H](NC(=O)[C@H](Cc1c[nH]c2ccccc12)NC(=O)[C@@H]1CCCN1C(=O)[C@H](Cc1ccccc1)NC(=O)[C@@H](NC(=O)[C@@H](N)Cc1c[nH]c2ccccc12)[C@@H](C)CC)C(=O)N[C@@H](CCC(N)=O)C(=O)N[C@@H](CC(C)C)C(=O)NCC(=O)NCC(=O)N[C@H](CCCCN)C(=O)N[C@H](CC(C)C)C(=O)N[C@H](C)C(=O)N[C@H](CCCCN)C(=O)N[C@H](CC(C)C)C(=O)N[C@H](C)C(=O)N[C@H](CCCCN)C(=O)N[C@H](CCCCN)C(=O)N[C@H](CC(C)C)C(=O)N[C@H](C)C(=O)N[C@H](CCCCN)C(=O)N[C@H](CC(C)C)C(=O)N[C@H](C)C(=O)N[C@H](CCCCN)C(=O)O | MALDI-TOF | mouse | intravenous, dose not given | – | detection time in blood | ≥ 4 h |
| COc1cc(NC(C)=O)c2c(c1O)-c1c(OC)c(OC)cc3c1C(C2)N(C)CC3 (centres unmarked) | – | rat brain homogenate | 100 µg/mL, time not given, three freeze-thaw cycles | – | remaining compound | 99.3 ± 3% |
| NC(=O)c1ccc(C(=O)NOCc2ccc(Sc3cccc(Cl)c3)c(C(F)(F)F)c2)cc1 | – | male ICR mouse, plasma | intravenous, 10 mg/kg | – | AUC(0-inf) | 14700 ng·h/mL |
| Nc1ncnc(NCC2CCN(C(=O)C(O)CO)CC2)c1-c1ccc(Oc2ccccc2)cc1 (centres unmarked) | – | healthy male human, plasma | oral, 75 mg evobrutinib | – | fraction of total drug exposure | > 10% |
| N=C(N)NCCC[C@@H]1NC(=O)[C@H](Cc2c[nH]c3ccccc23)NC(=O)[C@@H](CC2CCCCC2)NC(=O)[C@@H]2CCCN2C(=O)[C@@H](NC(=O)CCc2ccccc2)CCCNC1=O | – | C57BL/6J mouse, plasma brain | oral, 1 mg/kg single dose | – | MRT(0-inf) | 2.43 h |
| Cc1ccc(/N=N/c2c(O)ccc3ccccc23)c(C)c1 | – | rat whole blood extract | 0.2 µg/L, 30 days, -20 °C, long-term storage | – | measured concentration | 0.196 µg/L |
| O=C([O-])CN1CCN(CC(=O)[O-])CCN(CC(=O)NCC2CCC(C(=O)NC(Cc3ccc4ccccc4c3)C(=O)NCCCCC(NC(=O)NC(CCC(=O)O)C(=O)O)C(=O)O)CC2)CCN(CC(=O)[O-])CC1.[44Sc+3] (centres unmarked) | PET/CT dosimetry, OLINDA/EXM | human, spleen | – | – | organ absorbed dose | 0.248 mSv/MBq |
| CC(C)(C)NCC(SS(=O)(=O)O)c1ccccc1 (centres unmarked) | – | female Swiss Webster mice, plasma | intravenous, 15 mg/kg | – | C0 | 37200 ng/mL |
| O=C(O)C1OC(OC2C(COS(=O)(=O)O)OC(OC3C(C(=O)O)OC(OC4C(COS(=O)(=O)O)OC(OC5C(C(=O)O)OC(OC6C(COS(=O)(=O)O)OC(OC7C(C(=O)O)OC(OC8C(COS(=O)(=O)O)OC(OC9C(C(=O)O)OC(OC%10C(COS(=O)(=O)O)OC(OC%11C(C(=O)O)OC(Oc%12ccc([N+](=O)[O-])cc%12)C(O)C%11O)C(NS(=O)(=O)O)C%10O)C(OS(=O)(=O)O)C9O)C(NS(=O)(=O)O)C8O)C(OS(=O)(=O)O)C7O)C(NS(=O)(=O)O)C6O)C(OS(=O)(=O)O)C5O)C(NS(=O)(=O)O)C4O)C(OS(=O)(=O)O)C3O)C(NS(=O)(=O)O)C2OS(=O)(=O)O)C(O)C(O)C1OC1OC(COS(=O)(=O)O)C(O)C(O)C1NS(=O)(=O)O (centres unmarked) | – | rat, testes | intravenous, 3600 µg/kg per day, 7 days, day 8 | – | organ-to-body weight ratio | 1.29 ± 0.06 |
| COc1ccc(S(=O)(=O)N2CCc3ccccc3C2)cc1N1CCN(C(=O)c2ccc(F)cc2C(F)(F)F)CC1 | – | rat, brain | intravenous, 10 mg/kg, 1 h, single dose | – | concentration | 80.6 ng/g |
| COc1cc(C)c(Cc2ccc(O)cc2)cc1[C@@H]1S[C@H](CO)[C@@H](O)[C@H](O)[C@H]1O | – | Japanese T2DM patients, plasma | 5 mg luseogliflozin, day 7, once daily | – | Cmax | 15.3 ± 2.37 ng/mL |
| CC(=O)[CH](C(C)=O)[Pt-2]1([S+](C)C)[O]C(C)=CC(C)=[O+]1 (centres unmarked) | – | rat, blood | intravenous, 5 mg/kg, single dose | – | AST | 86.7 ± 9.2 U/L |
| CN1CCC(N[C@@H]2CCc3[nH]c4c(C(N)=O)ccc(-c5ccccc5Cl)c4c3C2)CC1 | – | mouse, plasma | oral, 10 mg/kg | – | MRT(0-inf) | 8.89 h |
| COCC1CN(C2CCN(c3cc(OC)c(Nc4ncc(Br)c(Nc5ccc6c(c5P(C)(C)=O)OCCO6)n4)cc3C)CC2)C1 | – | human patients | oral, 10 to 240 mg once daily | – | treatment-related Anorexia, all grades | 33.3% |
| COc1ccc(/C=C/c2ccc(-c3ccc(C)cn3)nc2)cc1 | – | aqueous HEPES buffer | pH 7.4, zinc(II)-saturated form, added: quinine bisulfate reference | – | fluorescence quantum yield | 0.31 |
| CN(C1COC1)C(C)(C)/C=C(\C#N)C(=O)N1CCC[C@H]1Cn1nc(-c2ccc(Oc3ccccc3)cc2F)c2c(N)ncnc21 | – | female Sprague-Dawley rat, plasma | oral, 40 mg/kg, 1 h | – | concentration | 104 ng/mL |
| CC(NC(=O)OC1OC(C(=O)O)C(O)C(O)C1O)c1cc(Cl)ccc1Cn1c(=S)[nH]c(=O)c2[nH]ccc21 (centres unmarked) | – | dog, both sexes, plasma | oral, 100 mg/kg/day | reference: dog over human 5 mg | exposure ratio | 2.8 |
| C[C@@H](O)[C@H](NC(=O)[C@@H](NC(=O)[C@@H](N)CCCCN)[C@@H](C)O)C(=O)N[C@@H](CCCCN)C(=O)N[C@@H](CO)C(=O)O | – | hairless mouse skin | 50 µg/cm^2, 24 h | – | amount retained in dermis | not detected |
| CC[C@H](C)[C@H](NC(=O)[C@@H](NC(=O)[C@H](CS)NC(=O)[C@H](C)NC(=O)[C@H](CC(N)=O)NC(=O)[C@H](CCCNC(=N)N)NC(=O)[C@H](CCCNC(=N)N)NC(=O)[C@H](CC(N)=O)NC(=O)[C@H](CCCNC(=N)N)NC(=O)[C@H](CCCNC(=N)N)NC(=O)[C@H](C)NC(=O)[C@H](CS)NC(=O)[C@H](CC(C)C)NC(=O)[C@@H](NC(=O)[C@@H](NC(=O)[C@H](CS)NC(=O)[C@H](CCCCN)NC(=O)[C@@H](N)CCCNC(=N)N)C(C)C)[C@@H](C)CC)C(C)C)C(=O)N[C@@H](CC(C)C)C(=O)N[C@@H](CS)C(=O)N[C@@H](CCCNC(=N)N)C(=O)O | LC/MS | PBS | 0.1 mg/mL | reference: LC peak area | two-disulfide form | 33% |
| CC(=O)N[C@@H](CC(N)=O)C(=O)NCC(=O)N[C@@H](CCCNC(=N)N)C(=O)N[C@@H](C)C(N)=O | 1H NMR | sodium phosphate buffer 50 mM | pH 7.4, 55 °C | – | half-life of Asn form | 3 h |
| NCC(=O)N1CCC[C@H]1C(=O)N1C[C@H](O)C[C@H]1C(=O)O | potentiometric titration | – | 37 °C, added: Fe(III) | – | log beta | 12 |
| Cn1c(=O)oc2ccc(-c3ccc(CC(C#N)NC(=O)C4CNCCCO4)c(F)c3)cc21 (centres unmarked) | – | human | oral, 40 mg once daily, treatment-related AE, multiple ascending dose | – | lymphadenopathy incidence | 0% |
| C[C@H](NC(=O)c1ccc2c(c1)C(=O)OC21c2ccc(O)cc2Oc2cc(O)ccc21)C(=O)N[C@@H](CCCCN)C(=O)N[C@@H](C)C(=O)N[C@@H](CCCCN)C(=O)N[C@@H](C)C(=O)N[C@@H](CCCCN)C(=O)N[C@@H](C)C(=O)N[C@@H](CCCCN)C(=O)N[C@@H](C)C(=O)N[C@@H](CCCCN)C(=O)N[C@@H](C)C(=O)N[C@@H](CCCCN)C(=O)N[C@@H](C)C(=O)N[C@@H](CCCCN)C(=O)N[C@@H](C)C(=O)N[C@@H](CC(N)=O)C(=O)N[C@@H](C)C(=O)N[C@@H](CC(N)=O)C(=O)N[C@@H](C)C(=O)N[C@@H](CC(N)=O)C(=O)O | – | bovine healthy cartilage | 24 h, 10 x PBS | – | desorbed fraction | 100% |
| O=C1/C(=C/c2ccc(B(O)O)cc2)CC/C1=C\c1ccc(B(O)O)cc1 | – | water | – | – | zeta potential | -15.3 mV |
| CC(C)c1cnc(-c2cc(Cl)ccc2F)cc1Nc1ccncc1C(=O)NC(CO)CO | monotherapy, item: fatigue | human patients | oral, dose not given, grade 5, phase I A | – | patients with treatment-related adverse event | 0% |

Some of these lines once more:
| SMILES | test | test system | conditions | how to read | endpoint | value |
| --- | --- | --- | --- | --- | --- | --- |
| CC(=O)[CH](C(C)=O)[Pt-2]1([S+](C)C)[O]C(C)=CC(C)=[O+]1 (centres unmarked) | – | rat, blood | intravenous, 5 mg/kg, single dose | – | AST | 86.7 ± 9.2 U/L |
| C[C@H](NC(=O)c1ccc2c(c1)C(=O)OC21c2ccc(O)cc2Oc2cc(O)ccc21)C(=O)N[C@@H](CCCCN)C(=O)N[C@@H](C)C(=O)N[C@@H](CCCCN)C(=O)N[C@@H](C)C(=O)N[C@@H](CCCCN)C(=O)N[C@@H](C)C(=O)N[C@@H](CCCCN)C(=O)N[C@@H](C)C(=O)N[C@@H](CCCCN)C(=O)N[C@@H](C)C(=O)N[C@@H](CCCCN)C(=O)N[C@@H](C)C(=O)N[C@@H](CCCCN)C(=O)N[C@@H](C)C(=O)N[C@@H](CC(N)=O)C(=O)N[C@@H](C)C(=O)N[C@@H](CC(N)=O)C(=O)N[C@@H](C)C(=O)N[C@@H](CC(N)=O)C(=O)O | – | bovine healthy cartilage | 24 h, 10 x PBS | – | desorbed fraction | 100% |
| COc1ccc(S(=O)(=O)N2CCc3ccccc3C2)cc1N1CCN(C(=O)c2ccc(F)cc2C(F)(F)F)CC1 | – | rat, brain | intravenous, 10 mg/kg, 1 h, single dose | – | concentration | 80.6 ng/g |
